Literature values as cited in several papers.
Protocols differ between the studies behind these lines.
Sequence of UniProt Q9BYT3 (whole entry, looked up): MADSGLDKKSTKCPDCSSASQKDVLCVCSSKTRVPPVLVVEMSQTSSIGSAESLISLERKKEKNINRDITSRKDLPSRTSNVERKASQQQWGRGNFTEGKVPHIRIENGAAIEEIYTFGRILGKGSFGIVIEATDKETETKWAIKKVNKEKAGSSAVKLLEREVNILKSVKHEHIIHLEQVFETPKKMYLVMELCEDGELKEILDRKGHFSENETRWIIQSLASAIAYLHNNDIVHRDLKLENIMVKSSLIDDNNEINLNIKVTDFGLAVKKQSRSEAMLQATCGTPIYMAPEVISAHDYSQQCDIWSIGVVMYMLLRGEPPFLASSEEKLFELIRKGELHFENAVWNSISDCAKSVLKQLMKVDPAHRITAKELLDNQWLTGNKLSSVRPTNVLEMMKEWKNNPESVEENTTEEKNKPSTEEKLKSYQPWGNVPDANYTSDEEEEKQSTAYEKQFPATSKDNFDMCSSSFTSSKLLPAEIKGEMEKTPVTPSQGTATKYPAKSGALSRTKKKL

For `COc1ccc(CC(C)NCC(O)c2ccc(O)c(NC=O)c2)cc1` (stereo not drawn), “trough FEV1 change from baseline” read 131 mL (COPD patients; inhaled, 36 µg single, 12 h post-dose; relative to: placebo).
Under “lowest dose reducing nonheme iron”, `C[C@@H](N)C1CCN(S(=O)(=O)c2cccc3cnccc23)CC1` is recorded as 1 mg/kg (mouse, CCM knockout; hemorrhage-associated iron deposition).
For `COC(=O)C1=C(C)NC(C)=C(C(=O)OC)C1c1c(-c2ccccc2OC(F)(F)F)nc2sccn12`, the IC50 was 1.95 µM (calcium-induced contraction, relaxant; guinea pig ileum longitudinal muscle).
`O=C(O)c1ccc(O)c(O)c1` has an effective dose of 5 mg/kg (lung protection; lung injury, acute, LPS-induced mouse; intraperitoneal).
With `CNC(C)C1CCC(N)C(OC2C(N)CC(N)C(OC3OCC(C)(O)C(NC)C3O)C2O)O1` (stereo not drawn) the MIC was over 8 µg/mL (Escherichia coli; clinical isolate RKI-No_521/16).
`Nc1cc(C(F)(F)F)c(-c2nc(N3CCOCC3)nc(N3CCOCC3)n2)cn1` has a remaining activity of 66% (Serine/threonine-protein kinase 33 (STK33, Homo sapiens, UniProt Q9BYT3); enzyme activity; 10 µM; relative to: untreated).
`COC(=O)C1=C(C)NC(C)=C(C(=O)OC)C1c1c(-c2cc(OC)c(OC)cc2[N+](=O)[O-])nc2sccn12` gave an EC50 of 1.34 µM (negative inotropic effect; guinea pig, isolated left atrium).
`CC(C)(C)NCC(O)c1ccc(O)c(CO)c1` (stereo not drawn): “trough FEV1 change” 94 mL (COPD patients; 4 mg single, 6 h, day 1; relative to: baseline, placebo-corrected).
With `Cn1cncc1[C@@](N)(c1ccc(Cl)cc1)c1ccc2c(c1)c(-c1cccc(Cl)c1)cc(=O)n2C` the response rate was 29% (human adults, poor-risk acute leukaemia; dose not given, sample A of sample B patients).
With `COC(=O)C1=C(C)NC(C)=C(C(=O)OC)C1c1c(Cl)nc2scc(C)n12` the EC50 was 0.103 µM (negative inotropic effect; guinea pig, isolated left atrium).
For `Nc1cccc2c1C(=O)N(C1CCC(=O)NC1=O)C2=O` (stereo not drawn), “median overall survival” read 13.6 months (relapsed refractory multiple myeloma patients; dose not given).
`COC(=O)C1=C(C)NC(C)=C(C(=O)OC)C1c1c(-c2cccc(C(F)(F)F)c2)nc2sccn12` gave an EC50 of 0.31 µM (negative inotropic effect; guinea pig, isolated left atrium).
`CC(=O)O[C@H]1C(=O)[C@@]2(C)[C@H]([C@H](OC(=O)c3ccccc3)[C@]3(O)C[C@H](OC(=O)[C@H](O)[C@@H](NC(=O)c4ccccc4)c4ccccc4)C(C)=C1C3(C)C)[C@]1(OC(C)=O)CO[C@@H]1C[C@@H]2O` — result for “median time to progression”: 5.5 months (platinum/compound-refractory ovarian cancer patients; 80 mg/m2 weekly, monotherapy).
For `CC1(C)S[C@@H]2[C@H](NC(=O)[C@H](N)c3ccccc3)C(=O)N2[C@H]1C(=O)O`, the MIC was over 16 µg/mL (Escherichia coli; clinical isolate RKI 131/08).
`CCN(c1cc(-c2ccc(CN3CCOCC3)cc2)cc(C(=O)NCc2c(C)cc(C)[nH]c2=O)c1C)C1CCOCC1`: “overall response rate” 15% (relapsed/refractory DLBCL, EZH2 wild-type; dose not given).

Repeated from above:
For `COC(=O)C1=C(C)NC(C)=C(C(=O)OC)C1c1c(-c2ccccc2OC(F)(F)F)nc2sccn12`, the IC50 was 1.95 µM (calcium-induced contraction, relaxant; guinea pig ileum longitudinal muscle).
`O=C(O)c1ccc(O)c(O)c1` has an effective dose of 5 mg/kg (lung protection; lung injury, acute, LPS-induced mouse; intraperitoneal).
